Experimental data collected from several papers.
Every numbered part comes from another study and shows a few of its results, in no order.

Set 1
Target: RING finger protein unkempt homolog, zinc fingers 1-6, GST-SBP tag (UNK, Homo sapiens, UniProt Q9C0B0, residues 30-357)
UniProt Q9C0B0, sequence (30-357, looked up): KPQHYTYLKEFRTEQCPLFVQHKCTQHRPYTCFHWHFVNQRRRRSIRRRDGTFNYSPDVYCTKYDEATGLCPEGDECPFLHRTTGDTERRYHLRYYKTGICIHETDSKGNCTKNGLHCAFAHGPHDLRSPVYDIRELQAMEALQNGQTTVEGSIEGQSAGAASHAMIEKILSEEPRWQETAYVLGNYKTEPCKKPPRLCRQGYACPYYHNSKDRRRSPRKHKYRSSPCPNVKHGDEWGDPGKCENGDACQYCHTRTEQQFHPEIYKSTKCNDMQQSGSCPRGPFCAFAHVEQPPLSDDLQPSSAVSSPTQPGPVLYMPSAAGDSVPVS
Method: RNA Bind-n-Seq
Molecule type: RNA
Medium: in vitro
Concentration: not given
Notes: RNA with constant flanks, human-mouse chimeric sites, ends assumed
Baseline: input RNA pool
Reading: higher = stronger binding
| Strand | bound/input enrichment [ratio] |
| --- | --- |
| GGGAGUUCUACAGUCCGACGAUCGAUCAUGAACCACCAUCAGAAAUGAAGGAUGAGACUACCAGACGAGCCAAAACAGCUGCGCUACAGAAAAGUAAACUUAACCUUGCAGAGUUCCUUAAAUGAAGAUCAAGUUAAGAGAGCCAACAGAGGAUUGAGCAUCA | 0.277 |
| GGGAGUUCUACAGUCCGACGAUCGGACAUCUUGUCAGGAUUUAUGUUCCUGUGAAACAAGUGAACACUCUGAUACACUUCAUCUGCUUGUACAUCUGUAUGAUAGAGAAAUGUAAAUAUGUUAAUCCAAGCAAUGUGUCACUUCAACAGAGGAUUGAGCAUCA | 0.183 |
| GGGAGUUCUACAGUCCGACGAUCCUCAGAGAUGUGGCAUAUCAGUAUGUGAAAAAGGGGUCUCGUAUAUUUUUGGAAGGGAAAGUGGACUAUGGCGAGUACAUGGAUAAAAACAAUGUGAGGCGGCAAGCAACAACAAUCAUACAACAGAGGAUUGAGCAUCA | 0.38 |
| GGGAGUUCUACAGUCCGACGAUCAACUUCGUACAUAGAUUUCCCUUUGUAGCUGUUUCAAUUGGCUUCCUUGUGAAUAAAGAGAUGGAGUUUGGAAUUGUGUACAGCUGUGUGGAAGGCAAGAUGUACACCGGCAGGAAAGGGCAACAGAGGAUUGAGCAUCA | 0.662 |
| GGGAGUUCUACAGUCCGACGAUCGCUCUUGGGAAUGUAAUCAGCGCCUUGGGGGACAAGAGCAAGAGAGCCACCCAUGUCCCUUACAGAGAUUCCAAGCUGACAAGACUCUUGCAGGAUUCCCUUGGGGGUAAUAGCCAAACCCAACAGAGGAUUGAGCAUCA | 0.136 |
| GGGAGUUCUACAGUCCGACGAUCUUACCCGAGAACGAGGAUGAGCUGGAGAGCACCAAUAGGCGCUACACCAAGAGGGACUGCAGCACUUUCCUCAGAACUAGUGAGACGGGCAUCGUGGAUCAGGUUAUGGUCACUCUCAACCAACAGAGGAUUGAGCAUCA | 0.143 |
| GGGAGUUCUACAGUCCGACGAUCCUGUUUUACAGCCACACCAAUCUUGGCAUGUAUUAAGAAAAAAAAAAAUCCCUGUUGAAGUAGUUUUUCCACCUAUCAGCACUGAGUAAAUGCCAUAACUCCGCGGAAAUGGUCUAAAUACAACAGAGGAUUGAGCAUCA | 0.217 |
| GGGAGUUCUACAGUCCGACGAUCGAUAAGAAAAACUUGUUGGAGACCCGCUUGCAUGUCACUGGUAGAGACCUGAGGUGUCAAAUAGCUGAAACUUUCGGAUUUCAAGAAAAUUACAUCAAGAUCGUAAUAAAUAAGAAACAGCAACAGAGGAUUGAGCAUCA | 0.29 |

Set 2
Target: RNA binding protein fox-1 homolog 2, RRM domain, GST-SBP tag (RBFOX2, Homo sapiens, UniProt O43251-10, residues 100-194)
Method: RNA Bind-n-Seq
Molecule type: RNA
Medium: in vitro
Concentration: 365 nM
Notes: natural RNA segment, single round, ends assumed
Baseline: no-protein control
Reading: higher = stronger binding
Construct (chain): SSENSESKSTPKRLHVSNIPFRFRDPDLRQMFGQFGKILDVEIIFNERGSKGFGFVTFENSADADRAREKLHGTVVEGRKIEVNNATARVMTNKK
| Strand | RBNS enrichment (R) |
| --- | --- |
| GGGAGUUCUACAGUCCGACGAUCGGUGGUUUUUCUUGUAAACUUGUGGACUUUUGAAACCUGUUGACUAAACAGUAAUUAAUUUAUAUUUGUGAAAAAUGCCACUGUCCUGGUGAUUUCUGAUGUAAAUAAUGUGGAAUUCUCGGGUGCCAA | 0.71 |
| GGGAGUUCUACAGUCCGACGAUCGUGCCAGUUUUAAGAAAGAAUUUCUGUGAAGUGUGAGGACUCUGGAGUCUAGCUCACAUAAAGAGAGUGUUAUAUAAAAAUCCGACAGCUGAACUAGGUUGCUCUUUUUUUGGAAUUCUCGGGUGCCAA | 0.477 |
| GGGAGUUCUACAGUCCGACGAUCGAGGAAAGACACCACAACCAACACGAAAGCAAUUCCUCAUCCUCAGAUGCUCAAAGUCCCUUUUCUGUUUGUUUGUUUAUAGAUGAACUAUCUAUCUUAUUUCAGUACUUUGGAAUUCUCGGGUGCCAA | 0.405 |
| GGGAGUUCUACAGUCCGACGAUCACCCAGAGACUUGGUCUCUGCAUGUGUGUAGAAGUAGUGGUGUGGGGAGGGAUGGGACUCACUCAGCCCUGUGAAUGUGUUCUAUGGCUGAGCAACAUCCCUAGCCUUCAUGGAAUUCUCGGGUGCCAA | 2.59 |
| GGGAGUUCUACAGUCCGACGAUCUUUCAGUACAAAUGAAAGAAAAGUGGUUUUAAUCAGUGAUUUAGUGGACCUUGAGCAACUGUGCACGCUUCACUCUAAUAGCAUGGUUUGGCCAGUGUAUUAGCUCUCAAUGGAAUUCUCGGGUGCCAA | 0.709 |
| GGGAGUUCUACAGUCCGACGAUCUGAGAUGGGAGAGAUUUGAAUAUAGAAUUUUUAUUCUCAAACUGUUUAGUCAUCUAAGGCUUCAUUGUACUUCGGGGAGAGCUAUAAGUAACUCACCUUUAAAACAACAGUGGAAUUCUCGGGUGCCAA | 0.297 |
| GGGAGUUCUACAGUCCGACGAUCAAAAUAUUUUUAGCAGAACAGGACUUACAGGGUCAUUGUCCCCACAAUGUGCCAGUCGGCUCUUUGCACUCGCCUUGUCCUAUAUAUCCGUACGGAGGUGUGCAAUCCUGUGGAAUUCUCGGGUGCCAA | 0.368 |
| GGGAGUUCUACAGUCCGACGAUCUCUCUUUGCAUGCCAUGUGUAAUAUACCUAGCCAAAACCAGAUGCGGUGACUUUCUUUUUUUGUAAAGCAAAUUACUUAAGAAAAUACAAUUCACUUGAAUUUGACAAACUGGAAUUCUCGGGUGCCAA | 3.55 |

Set 3
Target: Fragile X messenger ribonucleoprotein 1, C-terminal low-complexity region (Fmr1, Mus musculus, UniProt P35922)
Method: RNA Bind-n-Seq
Molecule type: RNA
Medium: in vitro
Concentration: 200 nM
Notes: whole 134-nt RNA, ends assumed
With: 150 mM KCl
Baseline: input library
Reading: higher = stronger binding
| Strand | log2 enrichment |
| --- | --- |
| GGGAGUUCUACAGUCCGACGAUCUUCCUCAAGUCCUGUGCUACACAUCGUAUGUACCGAAUCGGAGGAGGAGGAAAGUAUUAUGUUACGCCGUUCGGAUCUGCACUUCCAGCAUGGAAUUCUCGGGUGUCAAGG | -1.05 |
| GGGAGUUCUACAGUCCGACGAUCUGGGAGGUGGAUUUUGUUUAUUUUUUUAGCUCAUUUCCAGGGGUGGGAAUUUUGUUUUAAUAUGUGUCAUGAAUAAAGUUGUUUUUGAAAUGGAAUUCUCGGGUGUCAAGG | 0.105 |
| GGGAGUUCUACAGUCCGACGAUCUCAAGUCCUGUGCUACACAUCGUAUGUACCGAAUCGGUUUGGGUUUGGUUUGGGGAAAGUAUUAUGUUACGCCGUUCGGAUCUGCACUUCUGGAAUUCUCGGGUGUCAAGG | -0.313 |
| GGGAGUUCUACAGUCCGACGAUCUUUUAGGAAGCUGCAGUAAAGGAAGAUGAAGAAGAAGUUUCAGAUAAGGGCAGUGAUUCUGAAGAAGAAGAAACCAAUAGAGAUUCCCAAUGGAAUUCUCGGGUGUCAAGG | -0.762 |
| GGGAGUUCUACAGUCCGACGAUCACCAUGCAGGUGGGCAUCUUUGGGAAGUGGGGCAAGGGAGGGAUAGGGAGGGGGGUAACACUUUGGGAACAGGUGGUCCCAGGUCGUUUCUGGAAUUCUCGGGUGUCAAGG | 0.688 |
| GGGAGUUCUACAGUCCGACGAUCUCCUGUGCUACACAUCGUAUGUACCGAAUCAAACCCCCCCAAACCCCCCCAAAUUUAAAAAAGUAUUAUGUUACGCCGUUCGGAUCUGCAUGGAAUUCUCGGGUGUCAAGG | 0.0359 |
| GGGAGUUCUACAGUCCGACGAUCUCCUCAAGUCCUGUGCUACACAUCGUAUGUACCGAAUCGGAGGGAGGGGAGGAAAGUAUUAUGUUACGCCGUUCGGAUCUGCACUUCCAGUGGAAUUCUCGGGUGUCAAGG | 0.374 |
| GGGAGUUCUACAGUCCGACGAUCGUCCUGUGCUACACAUCGUAUGUACCGAAUCGGGGUUUUUGGGGAGGGGAAAAAGGGGAAAGUAUUAUGUUACGCCGUUCGGAUCUGCACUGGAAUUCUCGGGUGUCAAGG | 0.271 |
| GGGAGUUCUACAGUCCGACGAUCCAAGUCCUGUGCUACACAUCGUAUGUACCGAAUCGGAAAGGGAAAGGGGAAAGGGAAAGUAUUAUGUUACGCCGUUCGGAUCUGCACUUCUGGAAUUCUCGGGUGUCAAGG | -0.13 |

Set 4
Molecule: PhoQ, residues 284 288 289 292 302 303 MLMVEA
Method: Sort-seq
Refers to: YFP reporter
Medium: E. coli
Notes: PhoQ-PhoP variant library
With: 10 µM Mg2+
Baseline: high Mg2+ state
Reading: higher = stronger signaling
| target | fold induction |
| --- | --- |
| PhoP, residues 12 14 15 18 19 QYCSL (Escherichia coli, UniProt P23836) | 5.17 |
| PhoP, residues 12 14 15 18 19 STHWV (Escherichia coli, UniProt P23836) | 22.2 |
| PhoP, residues 12 14 15 18 19 SHWTV (Escherichia coli, UniProt P23836) | 14.2 |

Repeated from above (set 2):
| Strand | RBNS enrichment (R) |
| --- | --- |
| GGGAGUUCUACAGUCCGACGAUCAAAAUAUUUUUAGCAGAACAGGACUUACAGGGUCAUUGUCCCCACAAUGUGCCAGUCGGCUCUUUGCACUCGCCUUGUCCUAUAUAUCCGUACGGAGGUGUGCAAUCCUGUGGAAUUCUCGGGUGCCAA | 0.368 |
| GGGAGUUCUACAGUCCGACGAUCUCUCUUUGCAUGCCAUGUGUAAUAUACCUAGCCAAAACCAGAUGCGGUGACUUUCUUUUUUUGUAAAGCAAAUUACUUAAGAAAAUACAAUUCACUUGAAUUUGACAAACUGGAAUUCUCGGGUGCCAA | 3.55 |
